Published values of several laboratories.
Numbered parts are unrelated; each lists some results of a single study.

Sample 1
Target: Interferon regulatory factor 5, full length, phosphomimetic (IRF5, Homo sapiens, UniProt Q13568-2, residues 1-514, K96S/S451D/S453D/S456D/S462D)
Method: protein-binding microarray
Molecule type: double-stranded DNA, one strand shown
Matrix: in vitro
Tested at: 250 nM
Notes: 60-bp whole probe
Added: salmon DNA 0.4 mg/ml
Relative to: random background probes
Direction: higher = stronger binding
Endpoint: log fluorescence
Shared flanks, not repeated: GCCTAGCAC … GTCTTGATTCGCTTGACGCTGCTG
TTAGAATTCGGGTTTCGATTAGTGCTA: 7.29 z-score
TTAGGACTACTTTTCCTTTAGTGCTAG: 0.475 z-score
GACGATTGCGGGACTGGAGACGTGCTA: -0.608 z-score
TTTGGACTGGGTCTCGGTTAGTGCTAG: 0.0189 z-score
GACGAACTCGGGTATCGAGACGTGCTA: 0.303 z-score
GCACGGCTCGTTATCCTATAGTGCTAG: -0.525 z-score
TTAGATCTCAGTTACGATTAGTGCTAG: 0.488 z-score
TCACCTCTCCCCTCTTGTACTGTGCTA: -0.125 z-score
GGATTGCAACCCCTCAAAAAGTGCTAG: -0.31 z-score
TTAGATTTCCTACTGCTTTAGTGCTAG: 0.516 z-score
TTAGGTCTCCTTCGCCTTTAGTGCTAG: 0.266 z-score
GACGGTATAGACACTGGGGACGTGCTA: -0.41 z-score
TTAGGTCTCGCACTGGGTTAGTGCTAG: -0.135 z-score
TTATATTTCGGGTTTCGATTAGTGCTA: 8.3 z-score
TTAGAACTGGGGTTTCCATTAGTGCTA: -0.0589 z-score
TCATGTTTACATATGTTACTGTGCTAG: 0.357 z-score
TTAGGTCTCGGCCTCGGTTAGTGCTAG: -0.0989 z-score
TTACATATGTTTTTCATTTTGTGCTAG: 1.85 z-score
GACGGTCTCCTTCTCCTAACGTGCTAG: 0.207 z-score

Sample 2
Target: Histone acetyltransferase KAT6A, both winged helices, GST fusion (KAT6A, Homo sapiens, UniProt Q92794, residues 1-181)
Method: protein binding microarray
Molecule type: double-stranded DNA, one strand shown
Matrix: in vitro
Tested at: not given
Notes: 8-mer, flanks averaged, mean of 2 arrays, mostly near background
Relative to: not given
Direction: higher = stronger binding
Endpoint: E-score
Construct (chain): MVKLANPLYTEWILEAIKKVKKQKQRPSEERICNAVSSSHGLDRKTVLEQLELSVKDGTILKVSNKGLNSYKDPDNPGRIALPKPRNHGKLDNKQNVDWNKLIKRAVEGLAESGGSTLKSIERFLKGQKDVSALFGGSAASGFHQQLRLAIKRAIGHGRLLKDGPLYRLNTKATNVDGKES
ATGCGCGA: 0.306
TACCTATA: -0.277
ATCCGCAC: 0.215
CTAGGGAG: -0.176
CAAATATA: -0.153
AGGCGACG: 0.0598
ATAAGTAG: -0.0736
GAGCTCCA: -0.123
CACATCTA: -0.0734
CTGCTGGC: -0.0793
GAAGCGTA: 0.183
AAATGGAC: 0.00829
ATCGTCAA: 0.0658
CTGGTTTA: -0.088
GCCATTGA: 0.0375

Sample 3
Target: Sal-like protein 4, full length isoform A (SALL4, Homo sapiens, UniProt Q9UJQ4, residues 1-1053)
Sequence of UniProt Q9UJQ4 (whole entry, looked up): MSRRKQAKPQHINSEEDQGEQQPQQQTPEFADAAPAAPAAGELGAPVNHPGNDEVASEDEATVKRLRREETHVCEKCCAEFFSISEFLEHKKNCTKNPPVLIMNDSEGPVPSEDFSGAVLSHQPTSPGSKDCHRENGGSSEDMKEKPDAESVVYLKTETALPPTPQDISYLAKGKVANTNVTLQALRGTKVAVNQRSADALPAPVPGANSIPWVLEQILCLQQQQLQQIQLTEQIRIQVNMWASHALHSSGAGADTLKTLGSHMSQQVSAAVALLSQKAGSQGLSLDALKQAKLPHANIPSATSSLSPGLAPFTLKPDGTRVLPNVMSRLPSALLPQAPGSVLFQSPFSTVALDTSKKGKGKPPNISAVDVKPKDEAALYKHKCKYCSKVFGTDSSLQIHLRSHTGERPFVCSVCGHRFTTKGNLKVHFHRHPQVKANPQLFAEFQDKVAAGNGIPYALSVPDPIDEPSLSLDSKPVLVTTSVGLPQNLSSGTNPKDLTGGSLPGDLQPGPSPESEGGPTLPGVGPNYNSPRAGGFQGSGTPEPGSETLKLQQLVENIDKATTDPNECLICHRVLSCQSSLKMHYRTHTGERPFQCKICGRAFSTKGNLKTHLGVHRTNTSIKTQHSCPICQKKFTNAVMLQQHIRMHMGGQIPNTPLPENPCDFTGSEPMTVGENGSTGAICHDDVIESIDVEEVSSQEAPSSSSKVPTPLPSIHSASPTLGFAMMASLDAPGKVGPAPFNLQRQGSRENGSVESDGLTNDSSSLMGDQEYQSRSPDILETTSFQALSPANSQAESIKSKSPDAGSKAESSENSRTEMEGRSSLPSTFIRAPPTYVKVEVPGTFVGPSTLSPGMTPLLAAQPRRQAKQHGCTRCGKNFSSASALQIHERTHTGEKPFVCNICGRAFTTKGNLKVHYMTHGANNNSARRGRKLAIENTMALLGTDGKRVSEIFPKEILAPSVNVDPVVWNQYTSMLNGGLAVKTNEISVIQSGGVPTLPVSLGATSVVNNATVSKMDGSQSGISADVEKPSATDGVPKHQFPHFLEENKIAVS
Method: universal PBM
Molecule type: double-stranded DNA, one strand shown
Matrix: in vitro
Tested at: 600 nM
Notes: 8-mer, flanks averaged, mean of replicates
Direction: higher = stronger binding
Endpoint: E-score
AGCGTAAC: 0.115
AGGCAGAT: -0.000945
GCACGACC: -0.27
ATCGCTGC: -0.118
AAGTTAAA: 0.212
CACCGCTC: -0.293
AGGGTAAC: -0.119
GGTCACTA: -0.0257
AGCGCAGG: -0.333
GAAAAGTA: 0.219
CTCTCAAC: -0.159
ACACGTCA: -0.0331
CGAGATCG: -0.146
ACTTTCTA: 0.178
CGCCCCGA: -0.325
ATTATAAG: 0.319
ATTCGACA: 0.0626
AGTGACCA: -0.098
GCCCTCGC: -0.276
CCCTGCGA: -0.0943
TAAACTCA: 0.193
GATTAACA: 0.215
CTTATCGA: 0.18
CGGTACGA: -0.189
GTCACGGA: -0.208

Sample 4
Target: Prothrombin, mature alpha-thrombin (F2, Homo sapiens, UniProt P00734)
Method: aptamer microarray, sandwich
Molecule type: DNA with 2'F-ANA
Matrix: in vitro
Tested at: 200 nM
Notes: whole 15-mer aptamer, many near background
Added: Cy3 exosite-II aptamer, 400 nM
Direction: higher = stronger binding
Endpoint: mean fluorescence intensity
Strand: GGTTGGTGTGGTTGG
2'F-ANA at 2 3 5 7 10 13 15: 53.6 a.u.
2'F-ANA at 1 2 3 6 9 15: 180 a.u.
2'F-ANA at 1 3 5 6 9 11 14 15: 46.9 a.u.
2'F-ANA at 1 3 4 7 9 10 13 14 15: 60.7 a.u.
2'F-ANA at 1 7 8 11 13 14 15: 61.3 a.u.
2'F-ANA at 3 4 6 8 9 10 11 12 14 15: 151 a.u.
2'F-ANA at 3 4 6 8 10 11 14 15: 143 a.u.
2'F-ANA at 1 5 6 9 10 11 12: 47.6 a.u.
2'F-ANA at 1 4 5 7 8 9 10 11 12 13 14: 42.7 a.u.
2'F-ANA at 2 3 5 6 7 11 12: 155 a.u.
2'F-ANA at 2 6 9 12: 667 a.u.
2'F-ANA at 2 3 6 9 10 12 13 15: 348 a.u.
2'F-ANA at 4 5: 67.2 a.u.
2'F-ANA at 2 6 10 11 12 13 14 15: 110 a.u.
2'F-ANA at 2 4 5 6 7 12: 136 a.u.
2'F-ANA at 1 4 5 6 9 10 15: 74.2 a.u.
2'F-ANA at 1 3 4 5 9 13 14: 46.7 a.u.
2'F-ANA at 2 3 4 9 11 12 15: 686 a.u.
2'F-ANA at 3 6 7 9 13 15: 773 a.u.
2'F-ANA at 3 4 5 7 8 9 11 12 13 14: 69.4 a.u.
2'F-ANA at 1 2 4 5 6 9 10 14 15: 58.2 a.u.
2'F-ANA at 2 4 8 9 10 11 14 15: 59.6 a.u.
2'F-ANA at 3 4 5 7 8 13 15: 74.4 a.u.
2'F-ANA at 2 6 8 9 14: 130 a.u.

Sample 5
Target: Hepatocyte nuclear factor 3-alpha (Foxa1, Mus musculus, UniProt P35582, residues 1-468, full length assumed)
Sequence of UniProt P35582 (whole entry, looked up): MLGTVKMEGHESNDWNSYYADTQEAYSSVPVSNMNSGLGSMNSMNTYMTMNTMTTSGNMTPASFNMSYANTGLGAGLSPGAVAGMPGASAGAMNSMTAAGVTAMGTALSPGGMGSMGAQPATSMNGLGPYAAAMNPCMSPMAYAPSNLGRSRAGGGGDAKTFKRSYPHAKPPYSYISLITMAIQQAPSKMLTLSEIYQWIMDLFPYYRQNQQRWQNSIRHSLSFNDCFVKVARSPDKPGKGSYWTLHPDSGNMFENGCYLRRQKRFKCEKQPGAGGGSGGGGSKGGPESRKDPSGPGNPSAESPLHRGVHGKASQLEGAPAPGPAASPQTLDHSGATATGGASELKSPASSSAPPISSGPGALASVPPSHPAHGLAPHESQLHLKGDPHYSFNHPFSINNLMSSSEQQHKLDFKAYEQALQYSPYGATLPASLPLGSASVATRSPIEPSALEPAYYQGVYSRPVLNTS
Method: EMSA with sequencing
Molecule type: double-stranded DNA, one strand shown
Matrix: in vitro
Tested at: 10 and 20 nM
Notes: whole designed probe, mean of two concentrations, ends assumed
Relative to: negative control set to 0
Direction: higher = stronger binding
Endpoint: normalised bound fraction
Shared flanks, not repeated: GTGAGCGGTGCCCATTGATGGGGAAC … TTTCACTGGGATCGTGGGGAC
AGGCCTTATCACTGTGCAATCTCTTCCTCTTTCCCCAGTGCTGGTTCTCACACAATTGGTAATCAGTGTAAACTTCCTCTGACAATTTACTGAGCAATCTTTTACCATACAACTGCCCTATGTAGGGCTCTGTGCTAAGGCCCATGGGGAACCCAAGCCTGGTCTCCACCTTGGGGCATCTCGAGTCTGGTAG: -0.011 ratio
ATCTTCCCCCTCTTCCTTGCCCCACCAGCTCACCTACGGGGGTTATTTGCAGATAGGAAAATAAATAAAGCCGGCATTCGTTAACCCTCTTCTGGCGCAAACTGCTGTTTGCTCTGCATGAATCATGGTCCTTACGCGAGGCGTGGCTCCGGGAGAGCAAAGCACCGTGTCAGGCGCATGATCCGGGGTGGCC: 0.352 ratio
AGCTTAAGGAAGTTCTAACGCCCCCCTCCCCTCCTTTATTTTTGAGTTGAAAGAGGGTAGAATCAAAAACAATACTGAGAGGGGTCTAAAAATGCAATCTCAGAGAGTTGCTGGTTTAGGAGGGCTGGGAGGCTATGGGAGACCATAGGCATAGAGAAAACATTCCTTCTCTGTGACTCTCGGGCGCGAGCGA: 0.299 ratio
ATGTGGGAACTAATTGAGGACCATGTTTACAATGCGTACAAATCATAAATCAATTAGTTCATATTGATTTACAAACAAGGAAGAAAAAGTATTTGTTTACATTGATACTGTCCATGTAAACTTTTTTCAATTCAAAAGAAACACATAGTTCTGTCATAAAGTAGATTTTCTATCCCTTTTATTTTCTGAGCTT: 0.586 ratio
TCTGACATTTTATAAGGTTATTGCTGTTATACCCAATTTTTCTCTTTCTGCACTTTTGGCAATTAGTGTGATCTGTTGTATCAGTTTTGATGCTTGTTTACATTTTTATTACTTTTGTGTGAATTGTCATTTCAGAGATCTTATATATTATCCTAAAAAATGAATATGTTTTTCATAGACTGTAGTCTATGTG: 0.294 ratio

Excerpt of the above (sample 1):
TTACATATGTTTTTCATTTTGTGCTAG: 1.85 z-score
TTAGAATTCGGGTTTCGATTAGTGCTA: 7.29 z-score
TTAGGACTACTTTTCCTTTAGTGCTAG: 0.475 z-score
TTAGATTTCCTACTGCTTTAGTGCTAG: 0.516 z-score
GACGGTATAGACACTGGGGACGTGCTA: -0.41 z-score
TTTGGACTGGGTCTCGGTTAGTGCTAG: 0.0189 z-score
GCACGGCTCGTTATCCTATAGTGCTAG: -0.525 z-score
TTAGATCTCAGTTACGATTAGTGCTAG: 0.488 z-score
GACGGTCTCCTTCTCCTAACGTGCTAG: 0.207 z-score
TTATATTTCGGGTTTCGATTAGTGCTA: 8.3 z-score
TTAGGTCTCCTTCGCCTTTAGTGCTAG: 0.266 z-score
GGATTGCAACCCCTCAAAAAGTGCTAG: -0.31 z-score
GACGATTGCGGGACTGGAGACGTGCTA: -0.608 z-score
TCATGTTTACATATGTTACTGTGCTAG: 0.357 z-score
